Measured values from different studies.
Numbered parts are unrelated; each lists some results of a single study.
Sequence of UniProt P10721 (whole entry, unmodified, looked up): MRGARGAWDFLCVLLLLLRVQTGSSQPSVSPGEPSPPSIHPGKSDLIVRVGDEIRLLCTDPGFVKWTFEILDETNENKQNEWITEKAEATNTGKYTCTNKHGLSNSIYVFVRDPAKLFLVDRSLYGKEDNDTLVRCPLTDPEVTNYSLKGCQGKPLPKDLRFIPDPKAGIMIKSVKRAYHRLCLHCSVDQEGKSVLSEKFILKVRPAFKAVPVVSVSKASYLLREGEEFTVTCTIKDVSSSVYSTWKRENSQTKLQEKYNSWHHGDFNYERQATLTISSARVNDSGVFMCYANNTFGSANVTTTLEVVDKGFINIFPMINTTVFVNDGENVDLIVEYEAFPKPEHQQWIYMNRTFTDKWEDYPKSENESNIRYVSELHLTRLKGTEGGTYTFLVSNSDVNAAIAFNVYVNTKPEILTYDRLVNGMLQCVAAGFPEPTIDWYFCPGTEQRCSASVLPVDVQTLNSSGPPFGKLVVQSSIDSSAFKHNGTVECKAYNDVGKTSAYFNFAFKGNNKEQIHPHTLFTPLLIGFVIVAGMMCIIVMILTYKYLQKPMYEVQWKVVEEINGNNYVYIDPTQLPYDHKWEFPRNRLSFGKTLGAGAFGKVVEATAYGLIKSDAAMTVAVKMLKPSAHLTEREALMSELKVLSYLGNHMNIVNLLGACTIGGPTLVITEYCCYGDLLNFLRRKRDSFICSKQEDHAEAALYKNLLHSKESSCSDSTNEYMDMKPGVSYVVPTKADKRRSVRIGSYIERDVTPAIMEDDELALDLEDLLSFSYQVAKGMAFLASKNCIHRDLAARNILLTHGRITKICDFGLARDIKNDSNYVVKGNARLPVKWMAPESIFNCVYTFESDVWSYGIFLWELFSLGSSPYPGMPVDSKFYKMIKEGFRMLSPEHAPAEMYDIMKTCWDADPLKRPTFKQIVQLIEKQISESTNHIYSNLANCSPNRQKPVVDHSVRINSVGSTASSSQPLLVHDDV
Sequence of UniProt Q9HAZ1 (whole entry, looked up): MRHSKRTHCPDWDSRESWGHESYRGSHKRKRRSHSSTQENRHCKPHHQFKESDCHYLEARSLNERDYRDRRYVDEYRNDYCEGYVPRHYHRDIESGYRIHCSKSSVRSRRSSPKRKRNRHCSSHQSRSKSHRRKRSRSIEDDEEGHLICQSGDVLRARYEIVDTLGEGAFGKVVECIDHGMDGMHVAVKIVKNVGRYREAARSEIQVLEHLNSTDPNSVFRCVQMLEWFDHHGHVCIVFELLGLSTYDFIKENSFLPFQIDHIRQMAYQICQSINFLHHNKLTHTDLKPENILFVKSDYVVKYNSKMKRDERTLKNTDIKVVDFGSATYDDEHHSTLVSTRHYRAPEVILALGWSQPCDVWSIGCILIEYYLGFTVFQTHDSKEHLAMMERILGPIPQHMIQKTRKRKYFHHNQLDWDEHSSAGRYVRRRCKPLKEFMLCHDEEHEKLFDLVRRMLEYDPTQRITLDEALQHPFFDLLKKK
Sequence of UniProt Q8WXR4 (whole entry, looked up): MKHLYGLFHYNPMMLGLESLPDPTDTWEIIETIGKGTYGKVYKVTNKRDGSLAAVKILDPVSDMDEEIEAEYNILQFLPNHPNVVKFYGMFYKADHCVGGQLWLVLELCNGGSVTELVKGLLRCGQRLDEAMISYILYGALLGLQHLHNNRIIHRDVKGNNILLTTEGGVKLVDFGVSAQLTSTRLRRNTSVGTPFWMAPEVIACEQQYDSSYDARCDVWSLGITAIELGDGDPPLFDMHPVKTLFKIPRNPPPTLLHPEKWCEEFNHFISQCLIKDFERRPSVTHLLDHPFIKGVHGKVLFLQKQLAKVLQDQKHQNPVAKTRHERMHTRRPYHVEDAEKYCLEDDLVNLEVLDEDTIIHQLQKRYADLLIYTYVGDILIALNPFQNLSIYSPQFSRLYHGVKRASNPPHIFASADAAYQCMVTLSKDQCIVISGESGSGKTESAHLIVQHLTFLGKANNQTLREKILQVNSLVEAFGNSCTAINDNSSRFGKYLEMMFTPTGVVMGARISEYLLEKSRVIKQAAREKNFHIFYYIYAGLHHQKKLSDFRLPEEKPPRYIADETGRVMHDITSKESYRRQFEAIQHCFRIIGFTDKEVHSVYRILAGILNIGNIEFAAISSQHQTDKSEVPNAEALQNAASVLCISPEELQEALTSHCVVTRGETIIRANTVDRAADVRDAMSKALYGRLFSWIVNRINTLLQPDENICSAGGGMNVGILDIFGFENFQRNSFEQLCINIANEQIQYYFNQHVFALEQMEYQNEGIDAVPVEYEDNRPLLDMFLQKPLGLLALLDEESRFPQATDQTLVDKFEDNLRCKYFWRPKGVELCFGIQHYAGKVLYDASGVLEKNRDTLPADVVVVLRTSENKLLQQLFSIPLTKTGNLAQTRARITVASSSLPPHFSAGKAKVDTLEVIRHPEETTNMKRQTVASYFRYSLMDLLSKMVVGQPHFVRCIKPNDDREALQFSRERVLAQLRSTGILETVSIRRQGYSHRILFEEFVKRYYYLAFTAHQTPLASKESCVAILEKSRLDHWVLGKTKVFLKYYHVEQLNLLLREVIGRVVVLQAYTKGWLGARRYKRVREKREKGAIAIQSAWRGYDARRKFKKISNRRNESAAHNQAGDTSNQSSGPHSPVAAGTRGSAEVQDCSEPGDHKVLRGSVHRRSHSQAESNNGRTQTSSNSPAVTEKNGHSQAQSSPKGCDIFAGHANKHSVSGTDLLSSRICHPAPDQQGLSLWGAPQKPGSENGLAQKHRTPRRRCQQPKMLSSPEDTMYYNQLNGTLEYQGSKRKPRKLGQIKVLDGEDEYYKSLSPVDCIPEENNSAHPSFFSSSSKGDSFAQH
Sequence of UniProt Q9H3Y6 (whole entry, looked up): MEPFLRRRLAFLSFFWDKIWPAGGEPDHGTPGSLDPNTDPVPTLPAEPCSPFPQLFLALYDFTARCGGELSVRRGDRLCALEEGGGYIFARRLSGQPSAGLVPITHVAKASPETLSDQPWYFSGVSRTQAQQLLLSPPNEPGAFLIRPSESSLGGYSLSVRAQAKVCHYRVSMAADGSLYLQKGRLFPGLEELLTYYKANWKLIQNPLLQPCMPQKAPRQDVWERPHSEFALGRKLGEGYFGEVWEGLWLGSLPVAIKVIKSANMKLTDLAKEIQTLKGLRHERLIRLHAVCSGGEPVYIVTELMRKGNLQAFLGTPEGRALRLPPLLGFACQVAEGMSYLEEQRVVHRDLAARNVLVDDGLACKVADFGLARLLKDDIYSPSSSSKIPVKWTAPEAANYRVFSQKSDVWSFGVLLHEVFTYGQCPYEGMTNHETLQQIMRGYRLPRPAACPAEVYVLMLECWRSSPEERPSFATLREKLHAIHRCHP
Sequence of UniProt Q9UKE5 (whole entry, looked up): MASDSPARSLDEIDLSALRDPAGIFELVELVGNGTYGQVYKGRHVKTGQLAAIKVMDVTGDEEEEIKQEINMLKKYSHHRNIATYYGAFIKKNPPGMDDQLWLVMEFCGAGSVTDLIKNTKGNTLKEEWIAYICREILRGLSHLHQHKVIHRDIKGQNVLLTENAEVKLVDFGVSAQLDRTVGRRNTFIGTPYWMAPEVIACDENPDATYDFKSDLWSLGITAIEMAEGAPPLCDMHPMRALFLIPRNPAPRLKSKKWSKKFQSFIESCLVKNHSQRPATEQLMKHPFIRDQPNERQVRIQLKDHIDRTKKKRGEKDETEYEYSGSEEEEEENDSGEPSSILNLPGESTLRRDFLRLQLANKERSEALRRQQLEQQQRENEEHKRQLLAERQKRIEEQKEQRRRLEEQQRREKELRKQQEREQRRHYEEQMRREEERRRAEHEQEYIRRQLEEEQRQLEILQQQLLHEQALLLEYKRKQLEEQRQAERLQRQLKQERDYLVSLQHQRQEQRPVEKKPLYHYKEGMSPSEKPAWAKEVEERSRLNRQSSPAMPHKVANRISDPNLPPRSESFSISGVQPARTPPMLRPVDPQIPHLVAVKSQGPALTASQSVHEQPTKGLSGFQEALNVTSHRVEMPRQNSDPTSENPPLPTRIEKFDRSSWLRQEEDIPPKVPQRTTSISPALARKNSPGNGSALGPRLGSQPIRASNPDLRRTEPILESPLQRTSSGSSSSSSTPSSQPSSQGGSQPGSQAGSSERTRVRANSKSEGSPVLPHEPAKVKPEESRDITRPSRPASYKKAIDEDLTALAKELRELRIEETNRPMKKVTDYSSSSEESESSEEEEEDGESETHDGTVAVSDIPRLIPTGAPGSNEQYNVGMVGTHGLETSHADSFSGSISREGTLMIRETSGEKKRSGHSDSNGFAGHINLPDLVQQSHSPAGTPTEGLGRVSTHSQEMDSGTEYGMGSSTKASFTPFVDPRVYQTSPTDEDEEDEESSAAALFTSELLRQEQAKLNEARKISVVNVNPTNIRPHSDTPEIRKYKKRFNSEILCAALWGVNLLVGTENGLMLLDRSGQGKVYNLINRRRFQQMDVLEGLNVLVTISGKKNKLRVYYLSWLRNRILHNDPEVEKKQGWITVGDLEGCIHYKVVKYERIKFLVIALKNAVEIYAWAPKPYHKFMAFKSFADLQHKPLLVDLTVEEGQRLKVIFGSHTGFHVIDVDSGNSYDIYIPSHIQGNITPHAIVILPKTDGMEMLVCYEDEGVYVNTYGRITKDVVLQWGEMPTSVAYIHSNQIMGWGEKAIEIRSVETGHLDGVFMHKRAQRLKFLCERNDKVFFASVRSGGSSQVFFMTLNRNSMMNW
Sequence of UniProt Q16539 (whole entry, looked up): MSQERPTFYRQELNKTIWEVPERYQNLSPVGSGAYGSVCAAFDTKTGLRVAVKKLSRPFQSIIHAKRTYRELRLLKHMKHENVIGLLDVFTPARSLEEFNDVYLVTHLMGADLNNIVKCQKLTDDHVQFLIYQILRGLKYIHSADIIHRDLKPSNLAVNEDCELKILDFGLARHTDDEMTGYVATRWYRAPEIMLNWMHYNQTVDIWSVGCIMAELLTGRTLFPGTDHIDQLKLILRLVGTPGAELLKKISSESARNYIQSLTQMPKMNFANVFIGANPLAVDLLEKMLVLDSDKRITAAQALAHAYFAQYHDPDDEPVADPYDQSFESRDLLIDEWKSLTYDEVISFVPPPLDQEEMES

Block 1
Host: mouse
Medium: microsomes or S9
Concentration: 2 µM
Time: 0.5 h
SMILES	remaining compound [%]
COc1ccc(Cc2nc3c4cnn(-c5cc(Cl)ccc5Cl)c4ncn3n2)cc1	< 1
CC(=O)OC/C=C/CCCC/C=C/COC(C)=O	> 99.9
Oc1ccc(-c2oncc2-c2ccccc2)c(O)c1	23.6
O=C(O)c1cc2cc(-c3ccncc3)c3ccccc3c2o1	87.9
CCN(CC)S(=O)(=O)c1cc(Br)cnc1N	10.3
O=C(O)CCN(C(=O)c1cc2c(s1)CCCC2)C1CCOCC1	> 100
Cc1ccc(NC(=O)NCC(C(C)C)N(C)C)cc1 (centres unmarked)	0.053
Cc1nn(-c2ccccc2)c2nc3c(cc12)C(=O)CC(c1cccs1)C3 (centres unmarked)	7.21
Cc1nc2c(cc1Br)nc(Cl)n2C	0.988

Block 2
SMILES: Cc1c(NC(=O)c2cc(C(N)=O)nc3cc(F)ccc23)c(C(F)(F)F)nn1Cc1ccc(C(C)(C)C)cc1
Observed: cell-free assay
Method: competition with immobilised ligand
Concentration: 1 µM
target	remaining binding
EPHB1 (Homo sapiens, UniProt P54762)	86%
SRMS (Homo sapiens, UniProt Q9H3Y6)	100%
MAP4K5 (Homo sapiens, UniProt Q9Y4K4)	92%
SNRK (Homo sapiens, UniProt Q9NRH2)	93%
KIT (Homo sapiens, UniProt P10721)	99%
DDR1 (Homo sapiens, UniProt Q08345)	95%
CIT (Homo sapiens, UniProt O14578)	100%
MAP3K14 (Homo sapiens, UniProt Q99558)	100%
KIT (Homo sapiens, UniProt P10721, A829P)	98%
PIKFYVE (Homo sapiens, UniProt Q9Y2I7)	100%
TNIK (Homo sapiens, UniProt Q9UKE5)	98%

Block 3
SMILES: CC(C)n1cnc(-c2ccc(F)cc2)c1-c1ncc(C(=O)Nc2ccc(N3CCN(C)CC3)cc2)[nH]1
Method: phase 2a clinical trial
Host: patients with idiopathic pulmonary fibrosis
item	dose	notes	patients with treatment-emergent adverse events [%]
left ventricular dysfunction	60 mg once daily	Grade 5	0
gastro-oesophageal reflux disease	60 mg once daily	Grade 3	0
metabolism and nutrition disorders (SOC)	30 mg once daily	Grade 5	0
investigations (SOC)	60 mg once daily	Grade 3	0
carbon dioxide decreased	dose not given	Grade 5, all drug arms total	0
electrocardiogram T wave abnormal	30 mg once daily	Grade 3	0
protein urine present	30 mg once daily	Grade 2	0
protein urine present	60 mg once daily	Grade 3	0

Block 4
Structure (SMILES): O=C1Cc2c([nH]c3ccc(Br)cc23)-c2ccccc2N1
Observed: enzyme activity
Action: inhibitor
Concentration: 0.5 µM
Relative to: control
target	remaining activity [%]
Myosin-IIIb (MYO3B, Homo sapiens, UniProt Q8WXR4)	97.4
MARK2 (Homo sapiens, UniProt Q7KZI7)	74.3
PLK3 (Homo sapiens, UniProt Q9H4B4)	96
MAP2K1 (Homo sapiens, UniProt Q02750)	84.3
DCLK2 (Homo sapiens, UniProt Q8N568)	94.6
MINK1 (Homo sapiens, UniProt Q8N4C8)	29.6
MAPK14 (Homo sapiens, UniProt Q16539)	93
CDC42BPB (Homo sapiens, UniProt Q9Y5S2)	95.9
TLK2 (Homo sapiens, UniProt Q86UE8)	99.4
CLK4 (Homo sapiens, UniProt Q9HAZ1)	91.1
CAMK4 (Homo sapiens, UniProt Q16566)	98.1
ROCK1 (Homo sapiens, UniProt Q13464)	96.1
MAPK11 (Homo sapiens, UniProt Q15759)	104

Some of these lines once more (block 2):
target	remaining binding
TNIK (Homo sapiens, UniProt Q9UKE5)	98%
SRMS (Homo sapiens, UniProt Q9H3Y6)	100%
KIT (Homo sapiens, UniProt P10721, A829P)	98%
PIKFYVE (Homo sapiens, UniProt Q9Y2I7)	100%
MAP4K5 (Homo sapiens, UniProt Q9Y4K4)	92%
KIT (Homo sapiens, UniProt P10721)	99%
